{"data": "Experimental data of several laboratories", "FFAR4": "Free fatty acid receptor 4 (FFAR4, Homo sapiens, UniProt Q5NUL3)", "CHRM2": "Muscarinic acetylcholine receptor M2 (CHRM2, Homo sapiens, UniProt P08172)", "Trypanothione synthetase": "Trypanothione synthetase (Trypanosoma brucei brucei, UniProt Q8IEX1)", "Alpha-amylase": "Alpha-amylase (Bos taurus, UniProt Q3MHH8)", "USP51": "Ubiquitin carboxyl-terminal hydrolase 51 (USP51, Homo sapiens, UniProt Q70EK9)", "note": "Protocols differ between the studies behind these lines. “And” joins repeats or separate records; there may be more than shown. Numbers after ± are the reported error.", "UniProt Q5NUL3, sequence (whole entry, looked up)": "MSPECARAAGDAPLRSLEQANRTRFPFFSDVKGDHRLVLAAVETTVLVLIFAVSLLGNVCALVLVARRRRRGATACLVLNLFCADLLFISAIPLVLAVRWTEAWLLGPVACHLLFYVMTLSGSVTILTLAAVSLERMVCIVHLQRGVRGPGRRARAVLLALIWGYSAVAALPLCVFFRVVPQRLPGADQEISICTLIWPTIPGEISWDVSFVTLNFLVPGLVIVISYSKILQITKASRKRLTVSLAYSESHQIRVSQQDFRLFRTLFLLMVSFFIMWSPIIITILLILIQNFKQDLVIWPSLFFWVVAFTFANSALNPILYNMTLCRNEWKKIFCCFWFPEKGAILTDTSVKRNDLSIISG", "UniProt O43497, sequence (whole entry, looked up)": "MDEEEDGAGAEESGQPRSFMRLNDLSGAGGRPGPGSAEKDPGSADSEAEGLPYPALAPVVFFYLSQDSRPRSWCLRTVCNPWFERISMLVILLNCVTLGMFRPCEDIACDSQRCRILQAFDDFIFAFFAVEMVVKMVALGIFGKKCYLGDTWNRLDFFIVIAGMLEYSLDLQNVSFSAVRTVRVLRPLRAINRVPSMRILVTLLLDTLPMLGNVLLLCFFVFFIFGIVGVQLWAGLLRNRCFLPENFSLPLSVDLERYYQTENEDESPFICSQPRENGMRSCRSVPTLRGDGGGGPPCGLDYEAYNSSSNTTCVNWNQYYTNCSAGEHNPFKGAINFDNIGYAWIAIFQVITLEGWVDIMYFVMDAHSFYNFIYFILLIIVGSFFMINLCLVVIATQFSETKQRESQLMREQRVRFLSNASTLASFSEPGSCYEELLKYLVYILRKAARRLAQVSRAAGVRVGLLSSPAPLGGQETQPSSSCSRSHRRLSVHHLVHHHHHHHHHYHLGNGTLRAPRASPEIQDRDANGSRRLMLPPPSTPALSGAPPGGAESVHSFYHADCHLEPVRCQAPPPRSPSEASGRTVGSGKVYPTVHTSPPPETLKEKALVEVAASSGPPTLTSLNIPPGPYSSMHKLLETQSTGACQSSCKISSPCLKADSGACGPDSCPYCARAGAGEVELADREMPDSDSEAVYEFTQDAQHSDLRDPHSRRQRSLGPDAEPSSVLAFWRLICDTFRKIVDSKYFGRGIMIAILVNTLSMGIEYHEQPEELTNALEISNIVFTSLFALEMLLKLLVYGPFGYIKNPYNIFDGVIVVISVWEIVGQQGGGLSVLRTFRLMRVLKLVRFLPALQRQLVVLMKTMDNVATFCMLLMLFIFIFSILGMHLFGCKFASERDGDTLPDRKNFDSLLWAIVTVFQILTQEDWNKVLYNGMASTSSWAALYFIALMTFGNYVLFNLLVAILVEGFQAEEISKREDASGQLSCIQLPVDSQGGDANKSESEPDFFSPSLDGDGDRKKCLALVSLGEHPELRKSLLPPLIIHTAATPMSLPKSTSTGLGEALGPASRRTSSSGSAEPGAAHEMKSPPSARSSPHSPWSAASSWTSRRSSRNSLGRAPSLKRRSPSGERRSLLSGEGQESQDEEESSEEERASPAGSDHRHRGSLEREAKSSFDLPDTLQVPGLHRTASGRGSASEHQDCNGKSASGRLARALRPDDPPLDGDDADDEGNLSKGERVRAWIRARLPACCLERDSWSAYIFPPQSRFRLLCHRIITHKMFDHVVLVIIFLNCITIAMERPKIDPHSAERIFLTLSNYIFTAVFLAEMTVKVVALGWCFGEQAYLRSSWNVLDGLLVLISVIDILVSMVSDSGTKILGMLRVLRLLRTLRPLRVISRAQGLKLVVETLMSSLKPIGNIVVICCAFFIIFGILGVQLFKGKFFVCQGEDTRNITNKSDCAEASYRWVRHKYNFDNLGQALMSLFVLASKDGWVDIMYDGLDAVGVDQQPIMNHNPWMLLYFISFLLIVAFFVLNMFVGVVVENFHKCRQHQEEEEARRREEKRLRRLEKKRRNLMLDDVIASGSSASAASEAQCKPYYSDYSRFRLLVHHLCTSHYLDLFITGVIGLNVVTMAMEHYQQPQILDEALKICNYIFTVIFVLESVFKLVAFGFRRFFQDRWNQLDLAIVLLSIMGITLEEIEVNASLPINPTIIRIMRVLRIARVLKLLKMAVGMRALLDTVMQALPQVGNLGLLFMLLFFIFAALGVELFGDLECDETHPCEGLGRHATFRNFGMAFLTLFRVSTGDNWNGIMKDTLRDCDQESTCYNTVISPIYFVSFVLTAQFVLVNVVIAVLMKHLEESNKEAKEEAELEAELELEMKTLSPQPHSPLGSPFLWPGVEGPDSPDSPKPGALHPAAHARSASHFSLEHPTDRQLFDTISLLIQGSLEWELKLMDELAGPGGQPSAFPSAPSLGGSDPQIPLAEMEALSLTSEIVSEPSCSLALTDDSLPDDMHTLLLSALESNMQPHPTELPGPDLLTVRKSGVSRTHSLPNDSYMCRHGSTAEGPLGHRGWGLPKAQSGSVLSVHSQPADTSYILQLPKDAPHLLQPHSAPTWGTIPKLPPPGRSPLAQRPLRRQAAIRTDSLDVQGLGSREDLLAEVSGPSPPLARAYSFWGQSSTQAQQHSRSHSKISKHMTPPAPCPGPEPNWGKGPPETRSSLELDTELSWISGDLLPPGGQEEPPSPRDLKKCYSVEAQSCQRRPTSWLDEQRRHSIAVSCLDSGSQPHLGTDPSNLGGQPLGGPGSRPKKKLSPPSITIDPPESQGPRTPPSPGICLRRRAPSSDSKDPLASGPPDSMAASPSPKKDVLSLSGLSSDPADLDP", "UniProt Q70EK9, sequence (whole entry, looked up)": "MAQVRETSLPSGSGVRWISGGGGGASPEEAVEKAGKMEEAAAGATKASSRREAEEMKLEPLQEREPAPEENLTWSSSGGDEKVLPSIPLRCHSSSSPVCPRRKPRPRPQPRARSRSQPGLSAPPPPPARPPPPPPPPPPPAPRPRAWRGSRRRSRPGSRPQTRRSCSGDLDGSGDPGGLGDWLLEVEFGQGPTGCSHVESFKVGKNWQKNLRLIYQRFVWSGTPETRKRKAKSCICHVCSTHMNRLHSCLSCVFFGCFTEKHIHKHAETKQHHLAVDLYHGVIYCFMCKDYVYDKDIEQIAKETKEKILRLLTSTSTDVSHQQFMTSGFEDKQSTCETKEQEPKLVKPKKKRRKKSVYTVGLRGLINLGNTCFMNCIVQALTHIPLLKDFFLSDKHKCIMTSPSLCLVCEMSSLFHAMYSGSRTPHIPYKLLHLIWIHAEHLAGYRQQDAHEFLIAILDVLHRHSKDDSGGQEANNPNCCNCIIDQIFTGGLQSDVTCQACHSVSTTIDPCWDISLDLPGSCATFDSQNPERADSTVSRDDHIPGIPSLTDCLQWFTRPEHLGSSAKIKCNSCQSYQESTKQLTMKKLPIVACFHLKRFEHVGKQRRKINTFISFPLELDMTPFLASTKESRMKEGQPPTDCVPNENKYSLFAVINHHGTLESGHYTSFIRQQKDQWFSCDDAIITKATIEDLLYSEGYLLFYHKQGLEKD", "UniProt P08172, sequence (whole entry, looked up)": "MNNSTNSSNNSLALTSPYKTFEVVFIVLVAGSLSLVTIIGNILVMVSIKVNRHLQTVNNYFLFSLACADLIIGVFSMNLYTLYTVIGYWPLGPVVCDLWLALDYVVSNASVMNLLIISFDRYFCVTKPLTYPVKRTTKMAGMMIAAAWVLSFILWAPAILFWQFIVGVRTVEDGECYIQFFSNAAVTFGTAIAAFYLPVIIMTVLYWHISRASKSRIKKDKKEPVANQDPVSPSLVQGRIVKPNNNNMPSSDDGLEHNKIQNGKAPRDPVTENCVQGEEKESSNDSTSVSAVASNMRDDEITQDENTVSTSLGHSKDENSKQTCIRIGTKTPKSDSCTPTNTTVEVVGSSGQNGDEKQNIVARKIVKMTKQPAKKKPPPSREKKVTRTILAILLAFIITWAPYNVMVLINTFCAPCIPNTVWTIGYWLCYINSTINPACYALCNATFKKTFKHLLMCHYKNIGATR", "UniProt P61073, sequence (whole entry, looked up)": "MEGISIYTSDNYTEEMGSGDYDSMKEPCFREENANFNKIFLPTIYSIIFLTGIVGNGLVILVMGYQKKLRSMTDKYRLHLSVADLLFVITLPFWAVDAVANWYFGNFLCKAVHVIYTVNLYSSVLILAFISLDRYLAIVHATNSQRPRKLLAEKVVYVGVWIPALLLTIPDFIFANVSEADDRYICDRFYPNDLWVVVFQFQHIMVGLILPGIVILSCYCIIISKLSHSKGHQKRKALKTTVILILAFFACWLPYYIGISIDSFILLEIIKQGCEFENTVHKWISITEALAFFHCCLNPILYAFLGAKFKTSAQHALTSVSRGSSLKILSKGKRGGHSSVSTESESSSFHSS", "UniProt P47871, sequence (whole entry, looked up)": "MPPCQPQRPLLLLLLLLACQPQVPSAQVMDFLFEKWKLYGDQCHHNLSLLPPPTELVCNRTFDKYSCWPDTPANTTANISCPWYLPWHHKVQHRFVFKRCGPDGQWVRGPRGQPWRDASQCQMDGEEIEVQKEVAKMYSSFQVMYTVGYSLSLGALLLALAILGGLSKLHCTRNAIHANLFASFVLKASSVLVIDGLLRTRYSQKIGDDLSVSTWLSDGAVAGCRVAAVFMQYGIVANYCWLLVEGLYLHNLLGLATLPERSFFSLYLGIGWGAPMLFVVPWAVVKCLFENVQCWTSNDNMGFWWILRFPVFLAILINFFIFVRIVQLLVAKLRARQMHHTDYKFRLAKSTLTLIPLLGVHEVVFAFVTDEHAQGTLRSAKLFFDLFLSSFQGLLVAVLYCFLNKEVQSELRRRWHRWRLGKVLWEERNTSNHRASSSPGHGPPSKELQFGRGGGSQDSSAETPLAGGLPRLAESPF"}
{"SMILES": "Cc1ccc(C(=O)Nc2ccc3ccccc3c2)o1", "target": "CACNA1G (Homo sapiens, UniProt O43497)", "test": "ion current, inhibitor, whole-cell patch clamp", "conditions": "10 µM", "inhibition": "2.9% and 14.7% and 17.4% and 14.8% and 8.9%"}
{"SMILES": "CCCCCCCCNc1[nH]c(=O)[nH]c(=O)c1N=O", "target": "FFAR4", "test": "antagonist, β-arrestin recruitment", "test system": "CHO cells", "conditions": "10 µM, with: 4 µM TUG-891", "inhibition": "26 ± 4%"}
{"SMILES": "O=C(Nc1cccc2c(=O)cc(-c3nnn[nH]3)oc12)c1ccc(OCCCCc2ccccc2)cc1", "target": "Volume-regulated anion channel subunit LRRC8C, part LRRC8A IL1 chimera (LRRC8C, Homo sapiens, UniProt Q8TDW0, E6A)", "test": "ion current, inhibitor, whole-cell patch clamp", "test system": "HCT LRRC8-/- cells", "conditions": "3 µM, -100 mV", "inhibition": "90.4% and 87.4% and 86% and 94.8%"}
{"SMILES": "Cc1nn(-c2nc3c(F)cc(F)cc3s2)c(O)c1C(c1cccc(C(F)(F)F)c1)c1c(C)nn(-c2nc3c(F)cc(F)cc3s2)c1O", "target": "Cyclic GMP-AMP synthase, catalytic domain; with DNA (CGAS, Homo sapiens, UniProt Q8N884)", "test": "cGAS phase separation, inhibitor", "conditions": "25 µM", "inhibition": "85.9%"}
{"SMILES": "NC/C(=C\\F)COc1cccc(Cn2c(=S)[nH]c(=O)c3[nH]cnc32)c1", "target": "rat thyroid hormone receptor", "test": "radioligand binding", "conditions": "10 µM", "inhibition": "< 50%"}
{"SMILES": "CCN1/C(=C/C(C)=O)Sc2ccc(F)cc21", "target": "CHRM2", "conditions": "10 µM", "inhibition": "0%"}
{"SMILES": "O=C(NO)c1ccc(CN2CCCCc3ccccc32)c(F)c1", "target": "ADRB1 (Homo sapiens, UniProt P08588)", "test": "radioligand binding, radioligand displacement", "conditions": "10 µM", "inhibition": "11.3%"}
{"SMILES": "CC(C)(C)OC(=O)N1CCN(C(=O)CN2C(=O)Cc3c([nH]c4ccc(Br)cc34)-c3ccc(Cl)cc32)CC1", "target": "Trypanothione synthetase", "test": "enzyme activity, inhibitor, BIOMOL Green", "conditions": "30 µM", "inhibition": "18.7 ± 1.9%"}
{"SMILES": "[2H]c1cc(C)c(NC(=O)c2cnc(Nc3cc(N4CCCCC4)nc(C)n3)s2)c(Cl)c1", "target": "LCK (Homo sapiens, UniProt P06239)", "conditions": "0.0001 µM", "inhibition": "> 50%"}
{"SMILES": "CC1=NOC(=O)C1=NNc1ccc(S(N)(=O)=O)cc1", "target": "Alpha-amylase", "test": "enzyme activity, inhibitor, glucose oxidase", "conditions": "100 µg/mL, with: dextrin", "inhibition": "14.8%"}
{"SMILES": "Cn1cc(-c2cnc3ccc(NC(=O)Nc4ccc(F)c(Br)c4)cc3n2)cn1", "target": "MAP3K12 (Homo sapiens, UniProt Q12852)", "test": "kinase binding, KiNativ profiling, item: Lys2 peptide", "test system": "PANC-1 lysate", "conditions": "7.5 µM", "inhibition": "1.6%"}
{"SMILES": "CC1=NN(c2ccc(F)cc2)C(=O)C1=NNc1ccc(S(N)(=O)=O)cc1", "target": "Alpha-amylase", "test": "enzyme activity, inhibitor, glucose oxidase", "conditions": "200 µg/mL, with: dextrin", "inhibition": "13.2%"}
{"SMILES": "CCN1CCN(Cc2ccc(NC(=O)c3ccc(C)c(/C=C/c4cnc5[nH]ccc5c4OC)c3)cc2C(F)(F)F)CC1", "target": "ERN1 (Homo sapiens, UniProt O75460)", "test system": "A-375", "conditions": "0.05 µM", "inhibition": "-11.9%"}
{"SMILES": "OCCCN1CC[C@@H]2C[C@H]1c1cc(-c3ccc(C(F)(F)F)cc3)ccc12", "target": "CHRM2", "test": "radioligand binding, PDSP competition binding", "conditions": "10 µM", "inhibition": "< 50%"}
{"SMILES": "CC1=NN(c2ccccc2)C(=O)C1=NNc1ccc(S(N)(=O)=O)cc1", "target": "Alpha-amylase", "test": "enzyme activity, inhibitor, glucose oxidase", "conditions": "200 µg/mL, with: dextrin", "inhibition": "25.3%"}
{"SMILES": "O=c1[nH]c(NCCCc2ccccc2)c(Br)c(=O)[nH]1", "target": "FFAR4", "test": "antagonist, β-arrestin recruitment", "test system": "CHO cells", "conditions": "10 µM", "inhibition": "14 ± 1%"}
{"SMILES": "CC(C)(C)OC(=O)N1CCN(CCNC(=O)CN2C(=O)Cc3c([nH]c4ccc(Br)cc34)-c3ccc(Cl)cc32)CC1", "target": "Trypanothione synthetase", "test": "enzyme activity, inhibitor, BIOMOL Green", "conditions": "30 µM", "inhibition": "24.8 ± 3.6%"}
{"SMILES": "CC1=NCCNC(=O)C1=NNc1ccc(S(N)(=O)=O)cc1", "target": "Alpha-amylase", "test": "enzyme activity, inhibitor, glucose oxidase", "conditions": "100 µg/mL, with: dextrin", "inhibition": "13.1%"}
{"SMILES": "CCCCCCNc1cc(=O)[nH]c(=O)n1C", "target": "FFAR4", "test": "antagonist, β-arrestin recruitment", "test system": "CHO cells", "conditions": "10 µM, with: 4 µM TUG-891", "inhibition": "19 ± 7%"}
{"SMILES": "CC1=NN(c2cccc([N+](=O)[O-])c2)C(=O)C1=NNc1ccc(S(N)(=O)=O)cc1", "target": "Alpha-amylase", "test": "enzyme activity, inhibitor, glucose oxidase", "conditions": "200 µg/mL, with: dextrin", "inhibition": "10.4%"}
{"SMILES": "COc1ccc(F)cc1C(=O)NCc1ccc(-c2nn([C@@H](C)C(F)(F)F)c(N)c2C(N)=O)cc1", "target": "STK39 (Homo sapiens, UniProt Q9UEW8)", "test": "target engagement, competitive chemoproteomics", "test system": "human PBMCs", "conditions": "10 µM", "inhibition": "9.6%"}
{"SMILES": "CC1=NNC(=O)C1=NNc1ccc(S(N)(=O)=O)cc1", "target": "Alpha-amylase", "test": "enzyme activity, inhibitor, glucose oxidase", "conditions": "200 µg/mL, with: dextrin", "inhibition": "14.8%"}
{"SMILES": "Nc1nc(=O)n([C@H]2C[C@H](O)[C@@H](CO)O2)cc1CSCC[C@H](N)C(=O)O", "target": "DNMT3B (Homo sapiens, UniProt Q9UBC3)", "test": "enzyme activity, inhibitor", "conditions": "100 µM, with: DNMT3L", "inhibition": "no inhibition"}
{"SMILES": "O=c1cc(NCCOc2ccccc2)[nH]c(=O)[nH]1", "target": "FFAR4", "test": "antagonist, β-arrestin recruitment", "test system": "CHO cells", "conditions": "10 µM, with: 4 µM TUG-891", "inhibition": "27 ± 6%"}
{"SMILES": "Cc1cccc(C)c1NC(=O)c1nc(S(C)(=O)=O)ncc1N(Cc1ccccc1)Cc1ccco1", "target": "CXCR4 (Homo sapiens, UniProt P61073)", "test": "arrestin recruitment, antagonist, DiscoverX arrestin", "conditions": "30 µM", "how to read": "relative to: control", "inhibition": "-0.09% and 0.28%"}
{"SMILES": "O=c1cc(NCCc2ccc(Cl)cc2)[nH]c(=O)[nH]1", "target": "FFAR4", "test": "antagonist, β-arrestin recruitment", "test system": "CHO cells", "conditions": "10 µM", "inhibition": "10 ± 4%"}
{"SMILES": "CC1=NN(c2ccc(C)cc2)C(=O)C1=NNc1ccc(S(N)(=O)=O)cc1", "target": "Alpha-amylase", "test": "enzyme activity, inhibitor, glucose oxidase", "conditions": "200 µg/mL, with: dextrin", "inhibition": "26.7%"}
{"SMILES": "O=C(O)c1cc(O)c(O)c(O)c1", "target": "USP51", "test": "inhibitor", "conditions": "1 µM, 1 h preincubation, with: Ub-AMC 250 nM", "inhibition": "100%"}
{"SMILES": "O=c1cc(NCCCc2ccccc2)[nH]c(=O)[nH]1", "target": "FFAR4", "test": "antagonist, β-arrestin recruitment", "test system": "CHO cells", "conditions": "10 µM", "inhibition": "14 ± 16%"}
{"SMILES": "O=C(CN1C(=O)Cc2c([nH]c3ccc(Br)cc23)-c2ccc(Cl)cc21)N1CCN(c2ncccn2)CC1", "target": "Trypanothione synthetase", "test": "enzyme activity, inhibitor, BIOMOL Green", "conditions": "30 µM", "inhibition": "27.3 ± 3.9%"}
{"SMILES": "O=c1cc(NCCc2ccc(Br)cc2)[nH]c(=O)[nH]1", "target": "FFAR4", "test": "antagonist, β-arrestin recruitment", "test system": "CHO cells", "conditions": "10 µM, with: 4 µM TUG-891", "inhibition": "17 ± 3%"}
{"SMILES": "CN1CCN(c2cc(-c3ccncc3)c(-c3ccc4ccccc4c3)nn2)CC1", "target": "Glucagon receptor (GCGR, Homo sapiens, UniProt P47871)", "test": "antagonist, FLIPR", "conditions": "10 µM", "inhibition": "23.6%"}
{"SMILES": "CC[C@@H]1[C@H](F)C(=O)N[C@@H]1COc1nccc2cc(C(N)=O)c(OC)cc12", "target": "RPS6KA1 (Homo sapiens, UniProt Q15418)", "test": "ATP probe binding, KiNativ profiling, item: domain 2 Lys2 site", "test system": "THP-1 cell lysate", "conditions": "0.2 mM", "inhibition": "-12.2%"}
{"SMILES": "O=c1cc(NCCc2cccs2)[nH]c(=O)[nH]1", "target": "FFAR4", "test": "antagonist, β-arrestin recruitment", "test system": "CHO cells", "conditions": "10 µM", "inhibition": "-19 ± 8%"}
{"SMILES": "CCCOC(=O)c1cc(O)c(O)c(O)c1", "target": "USP51", "test": "inhibitor", "conditions": "1 µM, 1 h preincubation, with: Ub-AMC 250 nM", "inhibition": "75%"}
{"note": "Some of these lines once more:"}
{"SMILES": "CC1=NN(c2ccccc2)C(=O)C1=NNc1ccc(S(N)(=O)=O)cc1", "target": "Alpha-amylase", "test": "enzyme activity, inhibitor, glucose oxidase", "conditions": "200 µg/mL, with: dextrin", "inhibition": "25.3%"}
{"SMILES": "Cn1cc(-c2cnc3ccc(NC(=O)Nc4ccc(F)c(Br)c4)cc3n2)cn1", "target": "MAP3K12 (Homo sapiens, UniProt Q12852)", "test": "kinase binding, KiNativ profiling, item: Lys2 peptide", "test system": "PANC-1 lysate", "conditions": "7.5 µM", "inhibition": "1.6%"}
{"SMILES": "CC1=NOC(=O)C1=NNc1ccc(S(N)(=O)=O)cc1", "target": "Alpha-amylase", "test": "enzyme activity, inhibitor, glucose oxidase", "conditions": "100 µg/mL, with: dextrin", "inhibition": "14.8%"}
{"SMILES": "Cc1cccc(C)c1NC(=O)c1nc(S(C)(=O)=O)ncc1N(Cc1ccccc1)Cc1ccco1", "target": "CXCR4 (Homo sapiens, UniProt P61073)", "test": "arrestin recruitment, antagonist, DiscoverX arrestin", "conditions": "30 µM", "how to read": "relative to: control", "inhibition": "-0.09% and 0.28%"}
{"SMILES": "CC1=NCCNC(=O)C1=NNc1ccc(S(N)(=O)=O)cc1", "target": "Alpha-amylase", "test": "enzyme activity, inhibitor, glucose oxidase", "conditions": "100 µg/mL, with: dextrin", "inhibition": "13.1%"}
{"SMILES": "CC1=NNC(=O)C1=NNc1ccc(S(N)(=O)=O)cc1", "target": "Alpha-amylase", "test": "enzyme activity, inhibitor, glucose oxidase", "conditions": "200 µg/mL, with: dextrin", "inhibition": "14.8%"}
